Results collected from several papers.
Protocols differ between the studies behind these lines. Several values in a cell are separate wells, animals, samples, runs or records. ± marks the error that the study gave.
PRMT1: Protein arginine N-methyltransferase 1 (PRMT1, Homo sapiens, UniProt Q99873)
Sequence of UniProt P04818 (whole entry, looked up): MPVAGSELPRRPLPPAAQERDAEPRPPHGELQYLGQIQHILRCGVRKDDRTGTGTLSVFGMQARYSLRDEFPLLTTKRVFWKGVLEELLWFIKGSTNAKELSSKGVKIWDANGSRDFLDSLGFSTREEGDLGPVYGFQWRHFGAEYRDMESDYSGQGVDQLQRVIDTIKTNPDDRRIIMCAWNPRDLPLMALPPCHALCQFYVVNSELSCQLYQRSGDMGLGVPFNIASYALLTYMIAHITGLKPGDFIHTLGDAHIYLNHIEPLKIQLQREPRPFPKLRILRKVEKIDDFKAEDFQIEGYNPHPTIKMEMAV
Sequence of UniProt Q99873 (whole entry, looked up): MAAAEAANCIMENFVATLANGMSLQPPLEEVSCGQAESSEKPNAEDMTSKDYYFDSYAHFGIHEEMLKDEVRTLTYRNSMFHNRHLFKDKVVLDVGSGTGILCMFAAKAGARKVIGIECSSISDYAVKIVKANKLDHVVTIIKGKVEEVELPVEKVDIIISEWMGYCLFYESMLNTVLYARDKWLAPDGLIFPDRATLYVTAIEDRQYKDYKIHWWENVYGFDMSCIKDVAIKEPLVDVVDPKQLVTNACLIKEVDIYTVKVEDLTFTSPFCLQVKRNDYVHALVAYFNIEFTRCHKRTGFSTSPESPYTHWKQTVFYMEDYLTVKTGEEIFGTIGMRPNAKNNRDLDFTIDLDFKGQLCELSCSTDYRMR
Sequence of UniProt P16389 (whole entry, looked up): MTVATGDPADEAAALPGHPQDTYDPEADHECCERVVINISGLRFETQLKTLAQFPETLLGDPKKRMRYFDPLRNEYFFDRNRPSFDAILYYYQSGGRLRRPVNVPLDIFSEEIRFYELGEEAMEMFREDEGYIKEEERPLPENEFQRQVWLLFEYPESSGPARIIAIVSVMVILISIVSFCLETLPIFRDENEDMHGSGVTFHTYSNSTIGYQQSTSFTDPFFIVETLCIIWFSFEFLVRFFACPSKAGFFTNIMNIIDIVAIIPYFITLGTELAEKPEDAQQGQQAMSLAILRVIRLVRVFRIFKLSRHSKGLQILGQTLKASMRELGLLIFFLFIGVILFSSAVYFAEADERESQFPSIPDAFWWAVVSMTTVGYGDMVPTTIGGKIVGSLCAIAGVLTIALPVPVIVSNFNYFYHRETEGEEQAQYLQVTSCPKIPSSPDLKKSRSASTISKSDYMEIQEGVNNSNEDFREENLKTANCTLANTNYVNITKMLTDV
Sequence of UniProt P00772 (whole entry, looked up): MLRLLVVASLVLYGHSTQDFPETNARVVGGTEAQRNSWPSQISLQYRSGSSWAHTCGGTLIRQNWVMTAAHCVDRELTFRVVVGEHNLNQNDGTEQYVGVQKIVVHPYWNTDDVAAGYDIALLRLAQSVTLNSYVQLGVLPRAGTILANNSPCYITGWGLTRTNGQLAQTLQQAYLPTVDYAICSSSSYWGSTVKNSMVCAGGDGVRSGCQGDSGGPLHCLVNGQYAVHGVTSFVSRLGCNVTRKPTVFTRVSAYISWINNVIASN
Sequence of UniProt P50750 (whole entry, looked up): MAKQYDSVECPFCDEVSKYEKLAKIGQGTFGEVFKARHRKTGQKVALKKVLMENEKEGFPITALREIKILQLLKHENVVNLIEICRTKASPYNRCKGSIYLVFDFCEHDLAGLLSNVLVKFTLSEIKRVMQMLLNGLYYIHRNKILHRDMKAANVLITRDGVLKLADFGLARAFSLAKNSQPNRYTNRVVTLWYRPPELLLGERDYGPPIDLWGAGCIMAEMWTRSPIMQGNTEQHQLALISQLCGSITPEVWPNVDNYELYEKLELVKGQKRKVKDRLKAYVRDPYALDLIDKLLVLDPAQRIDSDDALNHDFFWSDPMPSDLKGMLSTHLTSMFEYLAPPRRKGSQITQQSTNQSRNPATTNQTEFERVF
Sequence of UniProt Q01650 (whole entry, looked up): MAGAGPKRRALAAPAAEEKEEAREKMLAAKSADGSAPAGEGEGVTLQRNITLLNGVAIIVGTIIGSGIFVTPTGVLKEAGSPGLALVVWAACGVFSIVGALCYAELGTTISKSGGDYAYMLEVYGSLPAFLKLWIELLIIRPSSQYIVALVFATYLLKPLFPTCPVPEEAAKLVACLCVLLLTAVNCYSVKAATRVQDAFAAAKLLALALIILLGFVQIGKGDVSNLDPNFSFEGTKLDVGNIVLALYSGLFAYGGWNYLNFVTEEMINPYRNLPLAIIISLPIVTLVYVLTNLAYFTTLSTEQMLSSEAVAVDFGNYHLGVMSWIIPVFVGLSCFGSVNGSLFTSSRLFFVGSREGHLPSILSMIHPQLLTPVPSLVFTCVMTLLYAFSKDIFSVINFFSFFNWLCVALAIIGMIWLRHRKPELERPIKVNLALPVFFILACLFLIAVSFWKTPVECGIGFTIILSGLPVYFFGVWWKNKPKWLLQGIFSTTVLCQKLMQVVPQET
Sequence of UniProt P30101 (whole entry, looked up): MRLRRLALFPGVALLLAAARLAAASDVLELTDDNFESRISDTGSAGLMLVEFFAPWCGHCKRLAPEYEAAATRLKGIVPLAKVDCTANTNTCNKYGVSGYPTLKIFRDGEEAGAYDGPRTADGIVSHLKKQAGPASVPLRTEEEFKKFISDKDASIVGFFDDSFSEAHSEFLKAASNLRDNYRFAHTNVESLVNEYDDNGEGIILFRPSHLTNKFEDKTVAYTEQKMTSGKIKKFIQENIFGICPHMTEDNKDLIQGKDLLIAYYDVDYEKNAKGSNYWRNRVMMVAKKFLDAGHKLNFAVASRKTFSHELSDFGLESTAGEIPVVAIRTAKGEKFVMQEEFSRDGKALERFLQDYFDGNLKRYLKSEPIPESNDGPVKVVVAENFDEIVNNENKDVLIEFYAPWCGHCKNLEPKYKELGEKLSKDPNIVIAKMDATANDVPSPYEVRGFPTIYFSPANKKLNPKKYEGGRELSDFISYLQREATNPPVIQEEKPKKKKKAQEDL
Sequence of UniProt O09061 (whole entry, looked up): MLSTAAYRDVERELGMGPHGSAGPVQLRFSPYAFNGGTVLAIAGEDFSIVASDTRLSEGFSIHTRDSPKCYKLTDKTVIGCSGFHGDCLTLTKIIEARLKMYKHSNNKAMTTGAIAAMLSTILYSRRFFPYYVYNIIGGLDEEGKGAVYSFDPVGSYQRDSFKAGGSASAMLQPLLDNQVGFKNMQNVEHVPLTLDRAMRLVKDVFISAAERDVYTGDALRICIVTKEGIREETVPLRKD
Sequence of UniProt P28063 (whole entry, looked up): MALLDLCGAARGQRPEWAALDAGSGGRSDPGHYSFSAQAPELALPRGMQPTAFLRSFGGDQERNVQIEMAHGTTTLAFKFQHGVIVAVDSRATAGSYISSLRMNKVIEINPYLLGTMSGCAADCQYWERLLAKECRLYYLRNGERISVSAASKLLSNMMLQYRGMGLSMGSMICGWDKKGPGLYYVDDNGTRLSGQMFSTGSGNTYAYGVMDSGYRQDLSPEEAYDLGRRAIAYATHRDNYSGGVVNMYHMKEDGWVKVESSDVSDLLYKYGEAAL
Sequence of UniProt C7C422 (whole entry, looked up): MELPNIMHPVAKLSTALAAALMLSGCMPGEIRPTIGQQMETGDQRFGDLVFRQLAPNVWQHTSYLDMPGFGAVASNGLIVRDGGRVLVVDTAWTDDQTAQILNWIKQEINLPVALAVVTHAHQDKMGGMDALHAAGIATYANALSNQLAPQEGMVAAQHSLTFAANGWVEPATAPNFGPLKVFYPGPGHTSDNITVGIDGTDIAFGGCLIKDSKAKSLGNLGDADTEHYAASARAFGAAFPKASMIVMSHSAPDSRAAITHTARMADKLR
Sequence of UniProt P45984 (whole entry, looked up): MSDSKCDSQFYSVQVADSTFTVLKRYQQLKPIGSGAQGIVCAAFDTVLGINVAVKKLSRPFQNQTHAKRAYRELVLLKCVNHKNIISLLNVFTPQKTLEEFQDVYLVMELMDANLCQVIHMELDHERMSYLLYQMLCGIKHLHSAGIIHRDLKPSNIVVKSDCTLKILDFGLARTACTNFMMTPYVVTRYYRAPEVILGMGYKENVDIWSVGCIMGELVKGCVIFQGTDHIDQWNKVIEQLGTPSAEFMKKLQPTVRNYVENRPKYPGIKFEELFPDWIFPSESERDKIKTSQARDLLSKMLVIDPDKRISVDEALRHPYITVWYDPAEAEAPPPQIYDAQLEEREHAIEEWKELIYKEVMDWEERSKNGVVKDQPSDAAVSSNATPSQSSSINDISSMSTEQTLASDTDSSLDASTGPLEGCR

SMILES	target	assay	test system	setting	IC50
N[C@@H](Cc1c[nH]c2ccc(OCc3ccccc3-c3ccoc3)cc12)C(=O)O	SLC7A5 (Homo sapiens, UniProt Q01650)	transporter uptake, inhibitor, radiometric			16 µM
CC(C)C[C@@H](NC(=O)[C@@H](Cc1ccccc1)NC(=O)[C@H]1CCCN1C(=O)[C@@H](CCC(N)=O)NC(=O)[C@H](NC(=O)[C@H]1CCCN1C(=O)[C@@H](CCCNC(=N)N)NC(=O)[C@@H](CO)NC(=O)[C@@H](CCC(N)=O)NC(=O)[C@@H](CC(=O)O)NC(=O)[C@H](N)[C@H](C)O)C(C)C)C(=O)N[C@H](CC(N)=O)C(=O)N[C@H](CC(C)C)C(=O)N[C@@H](C(=O)N[C@@H](C(=O)N1CCC[C@@H]1C(=O)N[C@H](CCCNC(=N)N)C(=O)N[C@H](CCCCN)C(=O)N1CCC[C@@H]1C(=O)N[C@H](CCCNC(=N)N)C(=O)N1CCC[C@@H]1C(=O)N1CCC[C@@H]1C(=O)N[C@H](CCCNC(=N)N)C(=O)N[C@H](CCCNC(=N)N)C(=O)N[C@H](CCCNC(=N)N)C(=O)N[C@H](CCC(N)=O)C(=O)N[C@H](CCCNC(=N)N)C(=O)N[C@H](CCCNC(=N)N)C(=O)N[C@H](CCCCN)C(=O)N[C@H](CCCCN)C(=O)N[C@H](CCCNC(=N)N)C(=O)NCC(N)=O)[C@H](C)O)[C@H](C)O	MAPK9 (Homo sapiens, UniProt P45984)	kinase activity, inhibitor, radiometric		pH 7.5, 30 °C, together with: GST-c-Jun substrate	355 ± 79 µM
CN(C)C/C=C/C(=O)Nc1ccc2nc(NCCCCCN(C)C)nc(NCCCCCCN(C)C)c2c1	PRMT1	enzyme activity, inhibitor, radiometric			1.3 µM
O=C(N[C@@H](Cc1coc2ccccc12)B(O)O)[C@@H]1C[C@H]2CC[C@@H]1O2	Proteasome subunit beta type-1/Psmb8, LMP7 subunit (Mus musculus, UniProt O09061+P28063)	LMP7 enzyme activity, inhibitor	mouse P3X63Ag8.653	2 h, tested up to 30000 nM	> 30 µM
O=C(O[C@@H]1Cc2c(O)cc(O)cc2O[C@@H]1c1ccc(O)c(O)c1)c1cc(O)c(O)c(O)c1	maltase, rat	enzyme activity, inhibitor	rat intestinal brush border vesicles		27.3 µM
C=CC(=O)N1CCc2ccc(-n3c(=O)ccc4cnc5ccc(-c6cnn(C)c6)cc5c43)cc21	FLT3 (Homo sapiens, UniProt P36888)	enzyme activity, inhibitor			3.99 µM
CN(C)c1ccc2c3c(cccc13)C(=O)N(CCS)C2=O	blaNDM-1 (Klebsiella pneumoniae, UniProt C7C422)	enzyme activity, inhibitor		pH 7	2.4 µM
C=CCc1ccc(OCc2nnc(SCC(=O)Nc3ccccc3C(=O)OC)o2)c(OC)c1	TYMS (Homo sapiens, UniProt P04818)	enzyme activity, inhibitor			1.25 µM and 1.21 µM
Cc1cc(CN2CCN(c3c(Br)cnc4nc(-c5ccc(N6CCN(C)CC6)cc5)[nH]c34)CC2)no1	FLT3 (Homo sapiens, UniProt P36888, D835Y)	enzyme activity, inhibitor			0.0033 µM
C/C=C1\NC(=O)[C@H](C)NC(=O)[C@@H](NC(=O)[C@@H](Cc2ccc(O)cc2)NC(=O)[C@@H](NC(=O)/C(C)=C/C)C(C)C)[C@@H](C)OC(=O)[C@H](CC(C)C)NC(=O)[C@@H](CCC(=O)O)NC1=O	CELA1 (Sus scrofa, UniProt P00772)	inhibitor			1.41 ± 0.28 µM
CN(C)C(=O)C1CN1S(=O)(=O)c1ccc(N(C)C)c2ccccc12 (stereo not drawn)	PDIA3 (Homo sapiens, UniProt P30101)	enzyme activity, inhibitor, absorbance		pH 7.6	15.2 µM
CC(=O)C12NC(C)(C)CC1(C)C(=O)C1=C2c2c(c3c4n2C(C)(C)CC2=C4C4(CC(C)(C)NC(C)(C4)C2=O)CC3(C)C)C(=O)C(C)(C)N1 (single isomer, unassigned; (-))	KCNA2 (Homo sapiens, UniProt P16389)	ion current, inhibitor, patch clamp			0.91 µM
N=C(NCCCCC(N)C(N)=O)NCCSCC1OC(n2cnc3c(N)ncnc32)C(O)C1O (stereo not drawn)	PRMT1	enzyme activity, inhibitor, fluorescence			8.3 µM
COC(=O)N[C@H]1CC[C@@H](Nc2cc(NCc3ccccc3F)n3ncc(C(C)C)c3n2)CC1	Cyclin-dependent kinase 9, with cyclin T (CDK9, Homo sapiens, UniProt P50750)	enzyme activity, inhibitor, luciferase kinase			0.44 µM
OC[C@H]1[C@@H](O)[C@@H](O)CN1Cc1ccc(I)cc1	Golgi alpha-mannosidase IIb (Drosophila melanogaster, UniProt Q9VF33)			pH 6.0, 0.5 mM CoCl2, together with: 2 mM pNP-Man	52 µM

Excerpt of the above:
SMILES	target	assay	test system	setting	IC50
CN(C)C/C=C/C(=O)Nc1ccc2nc(NCCCCCN(C)C)nc(NCCCCCCN(C)C)c2c1	PRMT1	enzyme activity, inhibitor, radiometric			1.3 µM
